Assay results collected from several papers.
Each line is one published result; not all experiments were run side by side. Numbers after ± are the reported error.

Compound | test | system | setting | Tmax
Cn1c(=O)n(-c2ccc(C(C)(C)C#N)cc2)c2c3cc(-c4cnc5ccccc5c4)ccc3ncc21 |  | patients with advanced solid tumours | oral, 200 to 800 mg, day 1, added: everolimus | ~3 h
Nc1ncc(-c2cnn(CCO)c2)c2scc(-c3ccc(NC(=O)Nc4cccc(F)c4)cc3)c12 |  | patients, plasma | oral, 480 mg twice weekly, day 15 | 9.9 ± 11.9 h
NC(=O)c1cnc2[nH]ccc2c1N[C@@H]1[C@@H]2CC3C[C@H]1C[C@@](O)(C3)C2 |  | healthy Caucasian men, plasma | oral, 200 mg, single dose fasted median | 1.8 h
Cc1ccc(-c2ncc(Cl)cc2-c2ccc(S(C)(=O)=O)cc2)cn1 |  | patients after hip surgery, plasma | oral, 120 mg | 1 h
CC(C)=CCC[C@](C)(O[C@@H]1O[C@H](CO)[C@@H](O)[C@H](O)[C@H]1O)[C@H]1CC[C@]2(C)[C@@H]1[C@H](O)C[C@@H]1[C@@]3(C)CC[C@H](O[C@@H]4O[C@H](CO)[C@@H](O)[C@H](O)[C@H]4O)C(C)(C)[C@@H]3CC[C@]12C | LC-MS/MS | healthy male volunteers, serum | oral, 3 g fermented red ginseng | 10.2 ± 3.58 h
NC(=S)NN=Cc1ncccc1N |  | human, serum | oral, 100 mg | 2 h
O=C(c1cccnc1-c1ccncc1)N1CCC(O)(Cc2ccccc2)CC1 |  | healthy subjects, plasma | oral, 300 mg twice daily, day 1 | 0.44 h
Cc1nc(-c2ccc(OCC(C)C)c(C#N)c2)sc1C(=O)O |  | healthy men, plasma | oral, 80 mg once daily, day 7 or 21, median | 1.5 h
CC(C)=CCC[C@](C)(O[C@@H]1O[C@H](CO)[C@@H](O)[C@H](O)[C@H]1O)[C@H]1CC[C@]2(C)[C@@H]1[C@H](O)C[C@@H]1[C@@]3(C)CC[C@H](O[C@@H]4O[C@H](CO)[C@@H](O)[C@H](O)[C@H]4O[C@@H]4O[C@H](CO)[C@@H](O)[C@H](O)[C@H]4O)C(C)(C)[C@@H]3CC[C@]12C | LC-MS/MS | healthy female volunteers, serum | oral, 3 g red ginseng | 8.33 ± 7.02 h
CC(=O)Nc1ccc(O[C@@H]2O[C@H](C(=O)O)[C@@H](O)[C@H](O)[C@H]2O)cc1 |  | healthy volunteers, both sexes, plasma | oral, 650 mg acetaminophen, day 1 | 2 h
COc1cc(OC)c(/C=C/S(=O)(=O)Cc2ccc(OC)c(NCC(=O)O)c2)c(OC)c1 |  | cancer patients, phase I, plasma | oral, 700 mg twice daily, day 1 cycle 1 | 1.14 ± 0.48 h
COc1ccc2c3c1O[C@H]1C[C@@H](OC(=O)c4ccccc4)C=C[C@@]31CCN(C)C2 |  | healthy young men, plasma | intranasal, 5.5 mg, single dose | 0.29 h
CO[C@H]1C[C@@H]2CC[C@@H](C)[C@@](O)(O2)C(=O)C(=O)N2CCCC[C@H]2C(=O)O[C@H]([C@H](C)C[C@@H]2CC[C@@H](OP(C)(C)=O)[C@H](OC)C2)CC(=O)[C@H](C)/C=C(\C)[C@@H](O)[C@@H](OC)C(=O)[C@H](C)C[C@H](C)/C=C/C=C/C=C/1C | HPLC-MS/MS | Japanese patients, whole blood | oral, 40 mg, day 1, cycle 1, median | 4 h
CC(=O)Nc1ccc(O)cc1 |  | healthy volunteers, both sexes, plasma | oral, 650 mg, day 1 | 0.78 h
C=C(C)[C@@H]1CC[C@]2(NCCN3CCS(=O)(=O)CC3)CC[C@]3(C)[C@H](CC[C@@H]4[C@@]5(C)CC=C(C6=CC[C@@](CF)(C(=O)O)CC6)C(C)(C)[C@@H]5CC[C@]43C)[C@@H]12 |  | healthy adults, plasma | oral, 200 mg once daily, day 7, added: dolutegravir 50 mg | 5 h
O=C1CCc2ccc(OCCCCN3CCN(c4cccc(Cl)c4Cl)CC3)cc2N1 |  | healthy Japanese men, CYP2D6 IM, plasma | oral, 3 mg aripiprazole single, added: paroxetine 20 mg/day | 2.3 ± 1 h
Cc1ccc(NC(=O)c2ccc(CN3CCN(C)CC3)cc2)cc1Nc1nccc(-c2cncc(-c3oncc3C)c2)n1 |  | healthy volunteers, plasma | oral, 200 mg once daily, day 1, 7-day dosing, mean | 4 h
Cn1c(-c2ccc(C(N)=O)cc2F)nnc1C(C)(C)Oc1c(F)cc(Cl)cc1F |  | elderly non-Japanese subjects, plasma | oral, 20 mg single dose, day 1, median | 3 h

Compound | test | system | setting | Tmax
CCOc1ccc(Cc2cc([C@@H]3S[C@H](CO)[C@@H](O)[C@H](O)[C@H]3O)c(OC)cc2C)cc1 |  | Japanese type 2 diabetes patients, plasma | oral, 5 mg single dose, eGFR 30-44 mL/min/1.73 m^2, median | 0.5 h
CC(=O)Nc1cccc(-n2c(=O)n(C3CC3)c(=O)c3c(Nc4ccc(I)cc4F)n(C)c(=O)c(C)c32)c1 |  | Japanese patients, plasma | oral, 2 mg once daily, repeat dosing, median, added: dabrafenib 150 mg twice daily | ~1 h
CC1=C2C[C@H]3[C@@H](CC[C@@H]4C[C@H](NS(C)(=O)=O)CC[C@@]43C)[C@@H]2CC[C@@]2(C1)O[C@@H]1C[C@H](C)CN[C@H]1[C@H]2C |  | patients, plasma | oral, 90 mg single, day -7, cycle 1 | 4 h
CCOc1cc([C@@H](CS(C)(=O)=O)N2C(=O)c3cccc(NC(C)=O)c3C2=O)ccc1O[C@@H]1O[C@H](C(=O)O)[C@@H](O)[C@H](O)[C@H]1O |  | severe renal impairment patients, plasma | oral, 30 mg of apremilast | 12 h
CN[C@H]1C(=O)N[C@@H]2Cc3ccc(cc3)Oc3cc4cc(c3O[C@@H]3O[C@H](C(=O)O)[C@@H](O)[C@H](O)[C@H]3NC(=O)CCCCCCCCC(C)C)Oc3ccc(cc3Cl)[C@@H](O)[C@@H]3NC(=O)[C@H](NC(=O)[C@@H]4NC(=O)[C@@H](NC2=O)c2cc(cc(O)c2Cl)Oc2cc1ccc2O)c1ccc(O)c(c1)-c1c(O[C@H]2O[C@H](CO)[C@@H](O)[C@H](O)[C@@H]2O)cc(O)cc1[C@@H](C(=O)NCCCN(C)C)NC3=O |  | healthy Japanese subjects, plasma | intravenous infusion, 500 mg, 30 min infusion, single dose, median | 0.5 h
C[C@H]1Oc2cc(cnc2N)-c2c(nn(C)c2C#N)CN(C)C(=O)c2ccc(F)cc21 |  | healthy adults | oral, 100 mg single dose, fasted, median | ≤ 2 h
CS(=O)(=O)n1cc2c(n1)CN([C@H]1CO[C@H](c3cc(F)ccc3F)[C@@H](N)C1)C2 |  | healthy Japanese men, plasma | oral, 10 mg once weekly, day 15 | 1 h
NS(=O)(=O)c1cc(Cl)c(Cl)c(S(N)(=O)=O)c1 |  | healthy volunteers, plasma | oral, 400 mg, single dose, median | 3 h
Cc1ccc(Sc2ccccc2N2CCNCC2)c(C)c1 |  | healthy men, plasma | oral, 5 mg once daily, fed, day 12 | 8.3 h
C[C@@H](N)c1cc(Cl)ccc1Cn1c(=S)[nH]c(=O)c2[nH]ccc21 |  | healthy Chinese volunteers, plasma | oral, 5 mg once daily, day 1, multiple dose, median | 1.5 h
CC[C@H](C)[C@H](NC(=O)[C@@H]1CCCN1C(=O)CNC(=O)[C@H](Cc1ccccc1)NC(=O)[C@H](CC(N)=O)NC(=O)[C@H](CC(N)=O)NC(=O)[C@H](CO)NC(=O)[C@H](CO)NC(=O)[C@H](Cc1c[nH]cn1)NC(=O)[C@@H](NC(=O)[C@H](CC(C)C)NC(=O)[C@H](Cc1ccccc1)NC(=O)[C@H](CC(N)=O)NC(=O)[C@H](C)NC(=O)[C@H](CC(C)C)NC(=O)[C@H](CCCNC(=N)N)NC(=O)[C@H](CCC(N)=O)NC(=O)[C@@H](NC(=O)[C@H](C)NC(=O)[C@@H]1CSSC[C@H](NC(=O)[C@@H](N)CCCCN)C(=O)N[C@@H](CC(N)=O)C(=O)N[C@@H]([C@@H](C)O)C(=O)N[C@@H](C)C(=O)N[C@@H]([C@@H](C)O)C(=O)N1)[C@@H](C)O)C(C)C)C(=O)N[C@@H](CC(C)C)C(=O)N1CCC[C@H]1C(=O)N1CCC[C@H]1C(=O)N[C@H](C(=O)N[C@@H](CC(N)=O)C(=O)N[C@H](C(=O)NCC(=O)N[C@@H](CO)C(=O)N[C@@H](CC(N)=O)C(=O)N[C@H](C(=O)N[C@@H](Cc1ccc(O)cc1)C(N)=O)[C@@H](C)O)C(C)C)[C@@H](C)O | ELISA | type 1 diabetes patients, plasma | subcutaneous, 6, 9 or 12 µg/U insulin | 0.25 to 0.5 h
C[C@@H](O)[C@H]1C(=O)N2C(C(=O)O)=C(S[C@@H]3CN[C@H](C(=O)N(C)C)C3)[C@H](C)[C@H]12 | microdialysis | pig (Danish Landrace), cortical bone | iv infusion, 1000 mg over 10 min, added: vancomycin co-administered | 1.57 h
CN1CC[C@@H](NC(=O)Nc2ccc(C#N)cc2)C[C@@H]1c1nc2ccccc2[nH]1 |  | Japanese patients | oral, 25 mg once daily, cycle 1 day 21, median | 4 h
CCC1=C(C)CN(C(=O)NCCc2ccc(S(=O)(=O)NC(=O)N[C@H]3CC[C@H](C)CC3)cc2)C1=O |  | healthy Korean male volunteers | oral, 4 mg single dose, median | 3 h
CN[C@H](CC(C)C)C(=O)N[C@H]1C(=O)N[C@@H](CC(N)=O)C(=O)N[C@H]2C(=O)N[C@H]3C(=O)N[C@H](C(=O)N[C@H](C(=O)O)c4cc(O)cc(O)c4-c4cc3ccc4O)[C@H](O)c3ccc(c(Cl)c3)Oc3cc2cc(c3O[C@@H]2O[C@H](CO)[C@@H](O)[C@H](O)[C@H]2O[C@H]2C[C@](C)(N)[C@H](O)[C@H](C)O2)Oc2ccc(cc2Cl)[C@H]1O | microdialysis | pig (Danish Landrace), cancellous bone | iv infusion, 1000 mg over 100 min, added: meropenem co-administered | 3.63 h
CCCOc1ccc([C@H]2CNC(=O)N2c2ccc3[nH]cnc3c2)cc1 |  | non-elderly adults, fasted, plasma | oral, 50 mg twice daily, day 11, oral solution, median | 0.5 h
C[C@]12C=CC(=O)C=C1CC[C@@H]1[C@@H]2[C@@H](O)C[C@@]2(C)[C@H]1C[C@H]1O[C@@H](C3CCCCC3)O[C@]12C(=O)CO |  | children with asthma, serum | inhaled, 80 µg ciclesonide, day 7, HFA-MDI with spacer | 0.7 ± 0.048 h
